Published values collected from several papers.
USP49 ZnF-UBD domain: Ubiquitin carboxyl-terminal hydrolase 49, ZnF-UBD domain (USP49, Homo sapiens, UniProt Q70CQ1)
Sequence of UniProt Q70CQ1 (whole entry, looked up): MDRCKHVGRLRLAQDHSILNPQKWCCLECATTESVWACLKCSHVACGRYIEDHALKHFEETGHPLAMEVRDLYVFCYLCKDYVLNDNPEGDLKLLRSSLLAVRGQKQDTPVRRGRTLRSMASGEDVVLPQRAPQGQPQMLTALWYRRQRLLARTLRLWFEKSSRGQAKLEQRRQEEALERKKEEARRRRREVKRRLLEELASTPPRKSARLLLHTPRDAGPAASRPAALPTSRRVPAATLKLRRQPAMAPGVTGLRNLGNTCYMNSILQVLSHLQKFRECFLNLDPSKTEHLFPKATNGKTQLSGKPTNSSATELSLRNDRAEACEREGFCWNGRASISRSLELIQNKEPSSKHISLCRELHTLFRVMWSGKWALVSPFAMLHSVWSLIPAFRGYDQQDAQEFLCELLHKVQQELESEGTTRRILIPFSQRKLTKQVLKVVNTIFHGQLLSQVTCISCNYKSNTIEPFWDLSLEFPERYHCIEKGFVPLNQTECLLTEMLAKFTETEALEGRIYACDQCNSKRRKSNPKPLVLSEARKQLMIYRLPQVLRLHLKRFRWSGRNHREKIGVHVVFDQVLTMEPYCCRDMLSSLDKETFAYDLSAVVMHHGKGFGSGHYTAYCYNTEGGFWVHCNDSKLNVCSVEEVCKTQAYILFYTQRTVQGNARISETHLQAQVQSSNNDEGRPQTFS

Compound	target or system	test	system	conditions	how to read	measurement	value
Cn1ncc(Cl)c1-c1cc(C(=O)N[C@H](CN)Cc2ccc(F)c(F)c2)oc1Cl	NLRP3 inflammasome (mouse)		mouse BMDM	10 µM		inhibition	53.8%
C[C@H]1CCC[C@H](C(=O)Nc2nnc(S(N)(=O)=O)s2)C1 (racemic)	Alpha-carbonic anhydrase (Enterococcus faecium, UniProt Q3XYE8)	CO2 hydration, inhibitor, stopped-flow kinetics				Ki	0.0421 µM
CCOc1cc2ncc(C#N)c(Nc3ccc(OCc4ccccn4)c(Cl)c3)c2cc1NC(=O)/C=C/CN(C)C	iCell Cardiomyocytes (hiPSC-derived)	CellTiter-Glo		concentration not given, 24 h	reference: control	ATP level	92.9%
O=C(O)Cc1nc2ccccc2o1	USP49 ZnF-UBD domain					Kd	> 1000 µM
CCCS(=O)(=O)Nc1ccc(F)c(C(=O)c2c[nH]c3ncc(Cl)cc23)c1F	iCell Cardiomyocytes (hiPSC-derived)	xCELLigence Cardio impedance		concentration not given, 2 h	reference: control	beat rate	104%
Cc1c(CN2CCN(C(=O)[C@H](C)O)CC2)sc2c(N3CCOCC3)nc(-c3cnc(N)nc3)nc12	NLRP3 inflammasome (mouse)		mouse BMDM	10 µM		inhibition	0.13%
C[C@H](CO)C(=O)O		binding, equilibrium dialysis LC-MS		5 µM, thermostabilized A2AR-BRIL construct	reference: no-protein control, direction not given	z-scored log2 fold change	-0.0853
C#Cc1cccc(Nc2ncnc3cc(OCCOC)c(OCCOC)cc23)c1	NLRP3 inflammasome (mouse)		mouse BMDM	10 µM		inhibition	5.64%
OC(CCN1CCCCC1)(c1ccccc1)C1CC2C=CC1C2 (stereo not shown)		resting-state EEG	healthy elderly humans	oral, 2 mg, eyes open, LS mean		power, alpha, EEG O1-Pz	9 µV²
COc1cc2c(N3CCN(C(=O)Nc4ccc(OC(C)C)cc4)CC3)ncnc2cc1OCCCN1CCCCC1	iCell Cardiomyocytes (hiPSC-derived)	xCELLigence Cardio impedance		concentration not given, 2 h	reference: control	beat amplitude	98%
Cn1cc(-c2ccc(-c3cncc(Cl)c3N3CCC4(CCNC4=O)CC3)cc2)cn1	COLO 205	microarray, item: BCL2L1		concentration not given, 2 h, gene set Bcl-XL	reference: untreated cells	fold change in expression	2.24
O=C(O)[C@H]1O[C@H](OP(=O)(O)OP(=O)(O)OC[C@H]2O[C@@H](n3ccc(=O)[nH]c3=O)[C@H](O)[C@@H]2O)[C@H](O)[C@@H](O)[C@@H]1O		binding, equilibrium dialysis LC-MS		5 µM, thermostabilized A2AR-BRIL construct	reference: no-protein control, direction not given	z-scored log2 fold change	0.0362
Cc1ccc(C(=O)Nc2ccc(CN3CCN(C)CC3)c(C(F)(F)F)c2)cc1C#Cc1cnc2cccnn12	NLRP3 inflammasome (mouse)		mouse BMDM	10 µM		inhibition	83.4%
CC(=O)NCCCCN		binding, equilibrium dialysis LC-MS		5 µM, thermostabilized A2AR-BRIL construct	reference: no-protein control, direction not given	z-scored log2 fold change	0.291
O=C(O)CCc1cnccn1	USP49 ZnF-UBD domain					Kd	> 1000 µM
O=C(O)c1ccoc1		binding, equilibrium dialysis LC-MS		5 µM, thermostabilized A2AR-BRIL construct	reference: no-protein control, direction not given	z-scored log2 fold change	-0.366
Cc1[nH]c(/C=C2\C(=O)Nc3ccc(S(=O)(=O)Cc4c(Cl)cccc4Cl)cc32)c(C)c1C(=O)N1CCC[C@@H]1CN1CCCC1	iCell Cardiomyocytes (hiPSC-derived)	xCELLigence Cardio impedance		concentration not given, 2 h	reference: control	beat rate	70.5%
CCc1nc(C(N)=O)c(Nc2ccc(N3CCC(N4CCN(C)CC4)CC3)c(OC)c2)nc1NC1CCOCC1	NLRP3 inflammasome (mouse)		mouse BMDM	10 µM		inhibition	-80.9%
O=C[C@H](O)[C@@H](O)[C@@H](O)[C@H](O)CO		binding, equilibrium dialysis LC-MS		5 µM, thermostabilized A2AR-BRIL construct	reference: no-protein control, direction not given	z-scored log2 fold change	-1.54

Repeated from above:
Compound	target or system	test	system	conditions	how to read	measurement	value
CCc1nc(C(N)=O)c(Nc2ccc(N3CCC(N4CCN(C)CC4)CC3)c(OC)c2)nc1NC1CCOCC1	NLRP3 inflammasome (mouse)		mouse BMDM	10 µM		inhibition	-80.9%
